Measurements of several laboratories.
Each line is one published result; not all experiments were run side by side.
Sequence of UniProt P21860 (whole entry, looked up): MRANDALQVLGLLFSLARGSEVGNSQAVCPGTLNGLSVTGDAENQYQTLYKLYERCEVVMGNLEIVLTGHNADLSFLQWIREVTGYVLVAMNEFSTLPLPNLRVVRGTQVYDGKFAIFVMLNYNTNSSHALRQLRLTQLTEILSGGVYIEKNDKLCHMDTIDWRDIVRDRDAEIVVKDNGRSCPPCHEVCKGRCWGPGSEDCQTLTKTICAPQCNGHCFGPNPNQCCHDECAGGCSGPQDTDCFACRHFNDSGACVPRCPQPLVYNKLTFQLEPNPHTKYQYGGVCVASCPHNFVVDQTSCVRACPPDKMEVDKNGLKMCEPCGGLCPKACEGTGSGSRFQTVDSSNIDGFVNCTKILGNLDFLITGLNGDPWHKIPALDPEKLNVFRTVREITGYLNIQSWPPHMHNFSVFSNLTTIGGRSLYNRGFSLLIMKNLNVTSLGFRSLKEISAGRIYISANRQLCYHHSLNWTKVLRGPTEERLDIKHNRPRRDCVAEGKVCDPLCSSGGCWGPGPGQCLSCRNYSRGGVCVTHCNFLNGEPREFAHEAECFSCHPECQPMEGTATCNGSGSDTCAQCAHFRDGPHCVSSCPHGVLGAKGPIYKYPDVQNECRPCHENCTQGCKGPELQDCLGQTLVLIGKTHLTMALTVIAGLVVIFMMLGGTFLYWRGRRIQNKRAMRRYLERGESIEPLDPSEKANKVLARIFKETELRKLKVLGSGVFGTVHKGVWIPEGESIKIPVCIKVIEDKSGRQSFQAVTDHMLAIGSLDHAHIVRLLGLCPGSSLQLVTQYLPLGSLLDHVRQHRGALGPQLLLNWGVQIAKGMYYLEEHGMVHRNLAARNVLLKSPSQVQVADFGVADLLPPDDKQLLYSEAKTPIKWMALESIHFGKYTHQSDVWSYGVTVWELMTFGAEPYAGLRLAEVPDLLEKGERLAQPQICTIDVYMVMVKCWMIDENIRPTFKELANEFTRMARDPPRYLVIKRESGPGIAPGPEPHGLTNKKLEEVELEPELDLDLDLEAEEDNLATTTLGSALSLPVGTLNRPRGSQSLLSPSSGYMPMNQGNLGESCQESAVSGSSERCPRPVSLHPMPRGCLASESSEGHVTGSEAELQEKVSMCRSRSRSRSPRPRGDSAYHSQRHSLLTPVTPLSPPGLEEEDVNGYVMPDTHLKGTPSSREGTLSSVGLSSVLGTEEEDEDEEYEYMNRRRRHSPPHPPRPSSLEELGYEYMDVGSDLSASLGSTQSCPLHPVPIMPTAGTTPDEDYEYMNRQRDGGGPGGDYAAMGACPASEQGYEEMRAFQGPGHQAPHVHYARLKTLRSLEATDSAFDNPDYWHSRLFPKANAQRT
Sequence of UniProt Q13131 (whole entry, looked up): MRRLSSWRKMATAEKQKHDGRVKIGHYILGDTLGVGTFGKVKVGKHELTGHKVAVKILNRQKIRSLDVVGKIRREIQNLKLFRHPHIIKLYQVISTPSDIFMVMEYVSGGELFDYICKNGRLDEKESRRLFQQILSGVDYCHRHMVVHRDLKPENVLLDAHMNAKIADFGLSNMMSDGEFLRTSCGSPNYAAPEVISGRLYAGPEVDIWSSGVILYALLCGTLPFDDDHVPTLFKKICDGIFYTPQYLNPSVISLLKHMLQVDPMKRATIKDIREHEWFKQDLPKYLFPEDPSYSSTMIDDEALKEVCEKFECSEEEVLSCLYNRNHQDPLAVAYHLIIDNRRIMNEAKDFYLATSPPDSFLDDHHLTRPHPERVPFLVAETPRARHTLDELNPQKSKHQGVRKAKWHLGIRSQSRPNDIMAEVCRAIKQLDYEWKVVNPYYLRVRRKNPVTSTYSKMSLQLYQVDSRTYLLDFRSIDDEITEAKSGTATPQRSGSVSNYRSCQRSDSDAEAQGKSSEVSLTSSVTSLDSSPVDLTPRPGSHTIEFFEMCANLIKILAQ
Sequence of UniProt P49286 (whole entry, looked up): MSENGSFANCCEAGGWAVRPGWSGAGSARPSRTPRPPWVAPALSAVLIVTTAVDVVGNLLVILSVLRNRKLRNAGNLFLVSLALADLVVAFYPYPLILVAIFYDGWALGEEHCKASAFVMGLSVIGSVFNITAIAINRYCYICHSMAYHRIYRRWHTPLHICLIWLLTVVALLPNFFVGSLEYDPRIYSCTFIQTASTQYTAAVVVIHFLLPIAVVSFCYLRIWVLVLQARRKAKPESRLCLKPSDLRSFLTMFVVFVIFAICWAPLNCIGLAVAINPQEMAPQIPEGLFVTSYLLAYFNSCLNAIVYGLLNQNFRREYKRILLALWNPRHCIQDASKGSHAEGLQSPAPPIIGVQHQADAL
Sequence of UniProt P21709 (whole entry, looked up): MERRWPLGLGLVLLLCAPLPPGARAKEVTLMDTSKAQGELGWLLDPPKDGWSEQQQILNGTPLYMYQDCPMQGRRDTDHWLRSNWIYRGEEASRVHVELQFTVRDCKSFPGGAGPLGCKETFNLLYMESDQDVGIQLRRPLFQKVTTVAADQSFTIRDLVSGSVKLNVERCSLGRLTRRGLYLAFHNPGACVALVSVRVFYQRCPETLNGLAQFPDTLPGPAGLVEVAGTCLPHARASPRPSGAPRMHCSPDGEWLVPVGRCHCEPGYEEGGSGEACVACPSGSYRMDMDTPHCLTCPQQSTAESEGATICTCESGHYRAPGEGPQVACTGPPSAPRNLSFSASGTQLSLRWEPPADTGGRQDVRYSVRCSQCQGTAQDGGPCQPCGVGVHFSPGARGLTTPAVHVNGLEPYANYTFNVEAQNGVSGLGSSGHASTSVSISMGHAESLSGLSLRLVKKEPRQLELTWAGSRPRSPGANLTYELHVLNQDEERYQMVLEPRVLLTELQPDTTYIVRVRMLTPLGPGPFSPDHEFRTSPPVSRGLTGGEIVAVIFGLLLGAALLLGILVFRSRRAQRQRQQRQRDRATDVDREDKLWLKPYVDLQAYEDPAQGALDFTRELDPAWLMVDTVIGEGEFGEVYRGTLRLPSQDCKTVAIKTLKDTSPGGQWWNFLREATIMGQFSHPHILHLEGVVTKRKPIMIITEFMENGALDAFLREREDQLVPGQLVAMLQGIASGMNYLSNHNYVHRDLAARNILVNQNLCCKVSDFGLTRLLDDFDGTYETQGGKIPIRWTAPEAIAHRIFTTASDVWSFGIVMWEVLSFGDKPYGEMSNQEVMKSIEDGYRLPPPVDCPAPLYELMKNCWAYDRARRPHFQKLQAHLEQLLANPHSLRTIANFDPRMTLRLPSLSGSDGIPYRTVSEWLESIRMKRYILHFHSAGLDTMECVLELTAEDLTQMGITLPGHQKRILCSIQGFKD
Sequence of UniProt P54764 (whole entry, looked up): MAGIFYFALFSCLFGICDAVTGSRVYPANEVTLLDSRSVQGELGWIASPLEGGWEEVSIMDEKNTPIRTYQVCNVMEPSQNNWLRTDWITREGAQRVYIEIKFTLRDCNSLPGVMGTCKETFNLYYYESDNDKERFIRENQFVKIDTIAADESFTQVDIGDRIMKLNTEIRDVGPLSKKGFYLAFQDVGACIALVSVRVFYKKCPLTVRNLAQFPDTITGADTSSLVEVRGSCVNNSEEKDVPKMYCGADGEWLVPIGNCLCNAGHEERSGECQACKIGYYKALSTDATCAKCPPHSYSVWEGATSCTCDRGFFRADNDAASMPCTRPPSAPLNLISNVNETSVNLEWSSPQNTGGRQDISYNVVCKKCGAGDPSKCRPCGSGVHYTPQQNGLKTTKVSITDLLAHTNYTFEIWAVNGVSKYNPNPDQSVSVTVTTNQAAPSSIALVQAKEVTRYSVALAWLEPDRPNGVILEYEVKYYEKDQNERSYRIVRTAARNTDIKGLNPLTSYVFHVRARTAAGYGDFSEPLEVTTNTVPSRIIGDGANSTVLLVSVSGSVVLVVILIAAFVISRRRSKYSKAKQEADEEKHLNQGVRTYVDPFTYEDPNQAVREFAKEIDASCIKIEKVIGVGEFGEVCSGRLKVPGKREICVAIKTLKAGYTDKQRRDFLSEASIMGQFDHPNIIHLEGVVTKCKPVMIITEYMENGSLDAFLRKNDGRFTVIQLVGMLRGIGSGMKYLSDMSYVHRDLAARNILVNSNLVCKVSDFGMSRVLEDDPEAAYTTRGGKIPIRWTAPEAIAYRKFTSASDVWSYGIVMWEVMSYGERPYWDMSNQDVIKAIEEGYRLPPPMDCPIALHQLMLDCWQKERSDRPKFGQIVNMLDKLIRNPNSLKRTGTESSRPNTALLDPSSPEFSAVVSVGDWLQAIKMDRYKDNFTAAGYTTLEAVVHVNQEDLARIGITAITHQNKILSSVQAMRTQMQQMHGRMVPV
Sequence of UniProt Q9SZU7 (whole entry, unmodified, looked up): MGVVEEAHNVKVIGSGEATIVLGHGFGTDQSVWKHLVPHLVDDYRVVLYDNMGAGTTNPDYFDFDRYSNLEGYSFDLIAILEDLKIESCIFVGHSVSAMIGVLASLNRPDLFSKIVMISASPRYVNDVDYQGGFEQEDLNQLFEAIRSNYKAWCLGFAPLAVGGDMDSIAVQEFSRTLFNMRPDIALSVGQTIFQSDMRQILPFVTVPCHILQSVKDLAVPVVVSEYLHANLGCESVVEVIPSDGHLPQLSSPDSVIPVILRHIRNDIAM
Sequence of UniProt P37023 (whole entry, looked up): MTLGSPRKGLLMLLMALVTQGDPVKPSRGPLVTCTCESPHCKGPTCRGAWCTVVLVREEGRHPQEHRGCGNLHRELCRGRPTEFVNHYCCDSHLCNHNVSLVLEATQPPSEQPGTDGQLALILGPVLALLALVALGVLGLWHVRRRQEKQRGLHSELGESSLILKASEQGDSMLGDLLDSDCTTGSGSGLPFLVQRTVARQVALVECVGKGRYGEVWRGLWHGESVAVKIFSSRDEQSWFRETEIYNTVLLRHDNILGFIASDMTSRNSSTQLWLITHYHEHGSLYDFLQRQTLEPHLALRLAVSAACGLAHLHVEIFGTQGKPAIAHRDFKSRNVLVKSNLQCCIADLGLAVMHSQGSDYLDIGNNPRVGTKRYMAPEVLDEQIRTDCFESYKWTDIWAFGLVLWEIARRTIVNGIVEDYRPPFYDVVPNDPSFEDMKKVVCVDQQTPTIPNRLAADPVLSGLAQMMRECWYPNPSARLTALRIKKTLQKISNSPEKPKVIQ

The viability of `O=C(Nc1ccccc1)Nc1ccc(Oc2nnc(-c3ccc(Cl)cc3)c3ccccc23)cc1` is reported as 5.07% (HepG2; cell growth or viability, MTT; 5 µM, 24 h).
For `CN(C)c1nccc(-c2cnc3ncccn23)n1`, the remaining binding was 100% (Receptor tyrosine-protein kinase erbB-3 (ERBB3, Homo sapiens, UniProt P21860); binding; 1 µM).
`O=C(c1ccc(F)cc1)C1CCN(CCn2c(=O)[nH]c3ccccc3c2=O)CC1` has a compound remaining of 59.9% (metabolic stability; monkey, liver microsomes; 15 min).
`COc1ccc2cccc(CCNC(C)=O)c2c1` has an Emax of 96% (Melatonin receptor type 1B (MTNR1B, Homo sapiens, UniProt P49286); β-arrestin recruitment, agonist; MT2; 90 min).
For `COc1cc(-c2cncc3c2CN(C)Cc2cc(N4CCNCC4)ccc2-3)cc(OC)c1OC`, the remaining activity was 103% (Ephrin type-A receptor 4 (EPHA4, Homo sapiens, UniProt P54764); enzyme activity, inhibitor; 1 µM).
`CCCCC(=O)Nc1ccc(-c2ccc3ncn(CCC)c(=O)c3c2)cn1` gave a remaining binding of 100% (Ribosomal protein S6 kinase alpha-2, N-terminal kinase domain (RPS6KA2, Homo sapiens, UniProt Q15349); binding, competition with immobilised ligand; 0.5 µM).
With `Cc1cc2c(cc1N1C(=O)c3cccc4c(Cl)ccc(c34)C1=O)n(C)c(=O)n2C` the ΔTm was -1 °C (Protein polybromo-1, BD2 (PBRM1, Homo sapiens, UniProt Q86U86); thermal stability, DSF; 10 µM).
For `Cc1cc([C@@H](C)Nc2ccccc2C(=O)O)c2nc(N3CCC(F)(F)CC3)c(C#N)c(=O)n2c1`, the remaining binding was 83% (Cyclin-dependent kinase 3 (CDK3, Homo sapiens, UniProt Q00526); binding, competition with immobilised ligand; 10 µM).
The concentration of `O=c1nc(N2CCN(CC3CCCCC3)CC2)sc2c([N+](=O)[O-])cc(C(F)(F)F)cc12` is reported as 2090 ng/mL (CD-1 mouse, plasma; intravenous, 10 mg/kg, 1 h).
`C1=C/COCc2cc(ccc2OCCN2CCCC2)Nc2nccc(n2)-c2cccc(c2)COC/1` gave a remaining binding of 39% (Activin receptor type-1-like (ACVRL1, Homo sapiens, UniProt P37023); binding; 0.1 µM).
`CC(=O)/C=C/C=C(C)/C=C/C1=C(C)CC(O)CC1(C)C` (stereo in doubt) has a ΔTm of 8.34 °C (KAI2 (Arabidopsis thaliana, UniProt Q9SZU7); thermal stability, DSF; 100 µM).
`CC(=NNC(=O)c1ccccc1Br)c1ccc(Nc2nnc(-c3ccc(Cl)cc3)c3ccccc23)cc1` gave a viability of 11.9% (HepG2; cell growth or viability, MTT; 1.25 µM, 24 h).
With `C=CC(=O)N1CCC(COCC(=O)N2CCN(c3nc(-c4cnc(N)nc4C(F)F)nc(N4CCOC[C@@H]4C)n3)CC2)CC1` the remaining binding was 100% (Ephrin type-A receptor 1 (EPHA1, Homo sapiens, UniProt P21709); binding, competition with immobilised ligand; 1 µM).
The remaining activity of `CNc1ncc2c(/C=C/C(=O)N3CCC(OC)CC3)nn(Cc3cccc(C(F)(F)F)c3)c2n1` is reported as 94% (5'-AMP-activated protein kinase catalytic subunit alpha-1 (PRKAA1, Homo sapiens, UniProt Q13131); enzyme activity, inhibitor, radiometric; 1 µM).
